Assay results from different studies.
A part holds a random share of what one study measured. Substitutions count along the parent as printed.

Series 1 — technique: DHFR PCA, deep sequencing; sample: yeast; added: (+)-ABA 58 µM; baseline: wild-type fitted maximum; reading: higher = stronger binding
Target: ABI1, truncated, D143A, DHFR fusion (Arabidopsis thaliana)
Setting: methotrexate growth selection, single substitutions
Starting sequence: PYL1, truncated, DHFR fusion (Arabidopsis thaliana); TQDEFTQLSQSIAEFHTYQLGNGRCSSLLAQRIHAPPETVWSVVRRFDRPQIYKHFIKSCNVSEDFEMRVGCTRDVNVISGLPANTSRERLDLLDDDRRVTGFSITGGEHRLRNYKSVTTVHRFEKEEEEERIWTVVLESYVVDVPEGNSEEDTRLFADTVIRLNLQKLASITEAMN
`R99F`: “relative binding score” 104%.
`I52R`: “relative binding score” 82%.
For `D3R`, “relative binding score” read 83%.
`N149L`: “relative binding score” 25.4%.
`E129T`: “relative binding score” 94.9%.
`T135E`: “relative binding score” -6.21%.
Under “relative binding score”, `Q51I` is recorded as 15.5%.
`G23R` — result for “relative binding score”: 83.2%.

Series 2 — technique: RNA Bind-n-Seq; molecule type: RNA; sample: in vitro; tested at: 200 nM; setting: whole 134-nt RNA, ends assumed; added: 150 mM KCl; baseline: input library; reading: higher = stronger binding
Target: Ras GTPase-activating protein-binding protein 1, full length (G3BP1, Homo sapiens, UniProt Q13283)
Chain of UniProt Q13283 (whole entry, looked up): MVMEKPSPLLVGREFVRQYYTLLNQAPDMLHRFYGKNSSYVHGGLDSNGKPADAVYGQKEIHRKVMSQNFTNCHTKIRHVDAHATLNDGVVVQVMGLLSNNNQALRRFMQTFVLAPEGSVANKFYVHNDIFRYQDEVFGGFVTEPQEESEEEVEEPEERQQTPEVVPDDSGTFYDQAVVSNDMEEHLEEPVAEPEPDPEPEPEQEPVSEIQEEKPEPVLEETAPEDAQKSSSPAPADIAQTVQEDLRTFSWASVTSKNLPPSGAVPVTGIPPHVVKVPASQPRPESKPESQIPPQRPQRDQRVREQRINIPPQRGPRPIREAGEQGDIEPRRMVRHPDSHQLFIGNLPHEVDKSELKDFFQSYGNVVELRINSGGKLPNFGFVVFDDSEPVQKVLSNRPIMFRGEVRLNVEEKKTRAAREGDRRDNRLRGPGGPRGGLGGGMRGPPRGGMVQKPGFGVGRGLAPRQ
Constant ends, left off below: GGGAGUUCUACAGUCCGACGAUC … UGGAAUUCUCGGGUGUCAAGG
With `AAGUCCUGUGCUACACAUCGUAUGUACCGAAUCGGGGAGGGGUUUGGGGAAAGGGGAAAGUAUUAUGUUACGCCGUUCGGAUCUGCACUU` the log2 enrichment was 0.849.
For `CUCAAGUCCUGUGCUACACAUCGUAUGUACCGAAUCGGGGCCGGCCGGGCCGGAAAGUAUUAUGUUACGCCGUUCGGAUCUGCACUUCCA`, the log2 enrichment was -0.274.
For `UGGGAGGUGGAUUUUGUUUAUUUUUUUCGCUCAUUUCCAGGGGUGGGAAUUUUUUUUUAAUAUGUGUCAUGAAUAAAGUUGUUUUUGAAA`, the log2 enrichment was 0.196.
With `AAGUCCUGUGCUACACAUCGUAUGUACCGAAUCGGGGUUUGGGGUUUGGUUUGGGGAAAGUAUUAUGUUACGCCGUUCGGAUCUGCACUU` the log2 enrichment was -0.107.
With `UGGGAGGUGGAUUUUGUUUAUUUUUUUAGCUCAUUUCCAGGGCUGGGAAUUUUUUUUUAAUAUGUGUCAUGAAUAAAGUUGUUUUUGAAA` the log2 enrichment was -0.579.
For `CUGUGCUACACAUCGUAUGUACCGAAUCGGGGAAAAAAAGGGAAAAAAAGGAAAAAAAGGGAAAGUAUUAUGUUACGCCGUUCGGAUCUG`, the log2 enrichment was -0.806.
`AGUCCUGUGCUACACAUCGUAUGUACCGAAUCGGAAAAAGGUUUUUUUGGAAAAAGGAAAGUAUUAUGUUACGCCGUUCGGAUCUGCACU` gave a log2 enrichment of -1.83.
`GCAGGAAGUAAAAACAAAUGGAAAUGCUUCGGAUAGUGGCAGGGGUGGGGGUUGCUAAGGAAAAAAUGGGAUGGGAGUGGGUAAAGAGUU` gave a log2 enrichment of 0.888.

Series 3 — technique: RNA Bind-n-Seq; molecule type: RNA; sample: in vitro; tested at: 20 nM; setting: 6-mer, flanks averaged, single round; added: 150 mM LiCl; baseline: input library; reading: higher = stronger binding
Target: TAR DNA-binding protein 43, full length, His tag (TARDBP, Homo sapiens, UniProt Q13148, residues 1-414)
`GAAAAA`: “6-mer enrichment (R)” 0.849.
Under “6-mer enrichment (R)”, `GCUAAU` is recorded as 0.913.
`AGCUGU` — result for “6-mer enrichment (R)”: 0.971.
Under “6-mer enrichment (R)”, `CACCAC` is recorded as 0.998.
`UGGUGA` — result for “6-mer enrichment (R)”: 1.22.
For `ACAUUU`, “6-mer enrichment (R)” read 1.01.
`GUUAUA`: “6-mer enrichment (R)” 1.03.
Under “6-mer enrichment (R)”, `CACCUC` is recorded as 0.942.

Single results of other studies
Starting sequence: PafA, mature enzyme, eGFP fusion (Elizabethkingia meningoseptica, UniProt Q9KJX5); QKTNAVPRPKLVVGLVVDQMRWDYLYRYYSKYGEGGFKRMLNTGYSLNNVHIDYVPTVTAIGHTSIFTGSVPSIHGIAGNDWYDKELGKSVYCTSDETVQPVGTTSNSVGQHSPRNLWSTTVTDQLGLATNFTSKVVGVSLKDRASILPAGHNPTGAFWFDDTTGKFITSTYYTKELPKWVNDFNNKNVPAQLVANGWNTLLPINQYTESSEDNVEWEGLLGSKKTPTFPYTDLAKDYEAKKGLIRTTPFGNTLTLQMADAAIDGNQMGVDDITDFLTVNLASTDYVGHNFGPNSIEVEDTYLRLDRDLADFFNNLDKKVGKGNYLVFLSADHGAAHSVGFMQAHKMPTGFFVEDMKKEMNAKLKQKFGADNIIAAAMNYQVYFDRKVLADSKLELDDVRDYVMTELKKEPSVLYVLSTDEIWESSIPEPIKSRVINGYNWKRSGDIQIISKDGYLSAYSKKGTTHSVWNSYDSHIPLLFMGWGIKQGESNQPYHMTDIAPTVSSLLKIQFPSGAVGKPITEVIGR
For `P411G`, “oxyanion analog dissociation constant” read 2.27 µM (tungstate, free oxyanion; microfluidic competitive inhibition; in vitro, cell-free expressed; not given, derived from inhibition constants, unchanged parent 2230 nM; lower = stronger binding).

A few entries again (series 3):
`GUUAUA`: “6-mer enrichment (R)” 1.03.
